# Measurements collected from several papers.
# Parts stem from different laboratories: compare values within a part only.
# UniProt Q05655, sequence (whole entry, looked up): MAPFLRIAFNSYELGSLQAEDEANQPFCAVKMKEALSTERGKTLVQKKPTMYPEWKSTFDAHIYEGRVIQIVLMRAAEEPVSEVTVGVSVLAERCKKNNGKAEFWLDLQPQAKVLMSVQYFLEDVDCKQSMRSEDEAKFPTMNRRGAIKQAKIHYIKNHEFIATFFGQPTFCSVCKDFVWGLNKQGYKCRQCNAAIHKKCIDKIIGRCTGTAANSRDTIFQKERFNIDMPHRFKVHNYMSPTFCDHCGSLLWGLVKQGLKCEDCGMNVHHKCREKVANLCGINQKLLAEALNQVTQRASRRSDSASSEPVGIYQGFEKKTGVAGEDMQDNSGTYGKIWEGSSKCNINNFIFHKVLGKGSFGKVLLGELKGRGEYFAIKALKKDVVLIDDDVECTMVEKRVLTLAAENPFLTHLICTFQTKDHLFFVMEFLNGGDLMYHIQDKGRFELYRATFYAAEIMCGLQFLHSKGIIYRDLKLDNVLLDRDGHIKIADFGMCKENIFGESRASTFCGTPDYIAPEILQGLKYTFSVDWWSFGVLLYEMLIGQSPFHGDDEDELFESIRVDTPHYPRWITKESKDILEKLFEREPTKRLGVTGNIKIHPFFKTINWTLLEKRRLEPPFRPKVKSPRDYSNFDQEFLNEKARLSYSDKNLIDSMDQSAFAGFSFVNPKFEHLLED

# Series 1
# Target: RING finger protein unkempt homolog, zinc fingers 1-6, GST-SBP tag (UNK, Homo sapiens, UniProt Q9C0B0, residues 30-357)
# Method: RNA Bind-n-Seq
# Molecule type: RNA
# Matrix: in vitro
# Tested at: not given
# Notes: RNA with constant flanks, ends assumed
# Reference: input RNA pool
# Reading: higher = stronger binding
# Target sequence (chain): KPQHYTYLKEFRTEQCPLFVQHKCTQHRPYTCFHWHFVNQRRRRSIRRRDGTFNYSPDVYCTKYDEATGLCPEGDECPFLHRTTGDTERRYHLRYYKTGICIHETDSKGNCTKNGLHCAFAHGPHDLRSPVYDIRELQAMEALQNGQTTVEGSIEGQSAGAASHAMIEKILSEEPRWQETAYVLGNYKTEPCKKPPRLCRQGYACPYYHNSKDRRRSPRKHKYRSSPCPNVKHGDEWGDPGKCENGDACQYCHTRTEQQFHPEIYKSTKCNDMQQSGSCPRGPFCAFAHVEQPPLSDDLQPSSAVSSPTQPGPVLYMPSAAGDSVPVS
Sequence,bound/input enrichment [ratio]
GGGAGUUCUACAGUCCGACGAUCUUUUUUCUGCCAAAAGGAGCCUACAUUUAUAAUGCACUUAUUGAAUUCAUUAGGAGCGAAUACCGGAAAAGAGGAUUCCAGGAGGUAGUCACCCCAAACAUCUUCAACAGCCGACUCUGGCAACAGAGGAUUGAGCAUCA,0.598
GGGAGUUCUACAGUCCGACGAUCGGGGGCGGGUGGAGGGUAGGAUUUGUGCUGGAUGAGGCCGCUGCUUCCUCGGACCCCAGAACCCGGACUUGGCCACGUUGCAGCCCCCGUUCGGGUAACGUUUUUCUUCACGCCGCAGCCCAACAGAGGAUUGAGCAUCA,0.34
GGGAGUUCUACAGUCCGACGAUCUUUAUUGAUCAGGUCUGUAAAUGUGUACUGAAAAAAAUCAGAGUUUAUUUAUAAACCGAACCGUUUAUUUAAAGAGGUAUUUUCCUCCUUGAUAUCAUGGUAUGCAUAAUUCUGUGUGUUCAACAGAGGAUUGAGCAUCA,0.054
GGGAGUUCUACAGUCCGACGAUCGGCUACCUGGUCUCCGUGGAUGGCUACAUGAACAUGCAGCUUGCAAAUACAGAAGAGUACACCGAUGGGGCGCUGUCUGGACAUCUGGGCGAAGUUCUAAUAAGGUGUAAUAAUGUCCUCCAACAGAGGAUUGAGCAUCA,0.0789
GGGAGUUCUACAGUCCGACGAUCAGGUUAACUCUGAGAGCUAUCAAACUAUGGGCCAAACGCCACAACAUCUAUUCCAAUAUAUCCGGUUUCCUCGGUGGUGUUUCCUGGGCUAUGCUAGUAGCAAGAACUUGCCAGCUUUAUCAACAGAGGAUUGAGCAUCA,0.25
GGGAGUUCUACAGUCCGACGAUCAUAUUUGUAAAUAAAGGUAGAAACAUUGGGAUCCACCCCUGCAGAACUUACUGUACAGUUCCGUUGAAGUGUAGAAAGGAAUUGUCAGCUCAUCGUGACUGAUACAUAGUGAAGAAAGUACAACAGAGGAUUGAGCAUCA,3.43
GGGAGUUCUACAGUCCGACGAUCGUAGAUGGUACCUUUCUAGUGUGGCAUGUGAAGUAUUUGGAUGAAUAUAAUCCUGGAAUAUUCCGACAAGUUCAGGUUUCUUUUUCUUCUCGGAUUCCUGUUGCAUUUCCCUCUGGUGAUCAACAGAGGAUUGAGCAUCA,0.322
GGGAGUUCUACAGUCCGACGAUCCAAGAUUUUCAGAUGUUAAGUAGAAUAUGGACUCAUCCUUGGUGUUUGCAGCUAGACUACAUCCGCAAAGAAAAUAAGGGUUAUUUUGAUGAAGACAGUAUGGAUGAAUUUAUAGCCUCACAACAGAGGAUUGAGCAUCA,0.268

# Series 2
# Target: Histone acetyltransferase KAT6A, winged helix 1, GST fusion (KAT6A, Homo sapiens, UniProt Q92794, residues 1-85)
# Method: protein binding microarray
# Molecule type: double-stranded DNA, one strand shown
# Matrix: in vitro
# Tested at: not given
# Notes: 8-mer, flanks averaged, mean of 2 arrays, mostly near background
# Reference: not given
# Reading: higher = stronger binding
# Target sequence (chain): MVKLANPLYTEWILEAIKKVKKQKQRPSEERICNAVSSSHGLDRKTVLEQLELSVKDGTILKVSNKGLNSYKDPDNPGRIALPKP
Sequence,E-score
CGTATAGA,-0.0965
CCGTAACG,0.376
ATAATCTA,0.00686
ACAAGTTA,0.0172
AAGATCGG,0.229
CGGTACGA,0.15
CATGCGGA,0.171
AGACTACT,-0.138

# Mixed results
Molecule,tested on,test,test system,conditions,scale,measurement,result
"FASTKD3 (Homo sapiens, UniProt Q14CZ7)","FASTKD1 (Homo sapiens, UniProt Q53R41)",cross-linking MS,,hits only,,interaction screen,cross-linked
CCOCCn1cc(C(=O)Nc2ccc(-n3nc(-c4cccnc4)cc3C(F)(F)F)cn2)ccc1=O,"EPHB2 (Homo sapiens, UniProt P29323)","cell-free assay, competition with immobilised ligand",,1 µM,,remaining binding,61%
"MYL6 (Homo sapiens, UniProt P60660)","MYO18A (Homo sapiens, UniProt Q92614)",cross-linking MS,cell fractions,together with: DMTMM,,cross-linked residues,E14 to K1212
N#Cc1c(NC(=O)c2cccc3ccccc23)sc2c1CCCC2,"PRKCD (Homo sapiens, UniProt Q05655)","enzyme activity, inhibitor",,0.5 µM,reference: control,remaining activity,94.1%
"MTA2 (Homo sapiens, UniProt O94776)","HDAC1 (Homo sapiens, UniProt Q13547)",cross-linking MS,cell fractions,together with: DSSO,,cross-linked residues,K71 to K220
"P4HA2 (Homo sapiens, UniProt O15460)","P4HB (Homo sapiens, UniProt P07237)",cross-linking MS,cell fractions,together with: DSSO,,cross-linked residues,K300 to K409

# For quick reference, copied from above (series 1):
Sequence,bound/input enrichment [ratio]
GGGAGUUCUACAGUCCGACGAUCGGCUACCUGGUCUCCGUGGAUGGCUACAUGAACAUGCAGCUUGCAAAUACAGAAGAGUACACCGAUGGGGCGCUGUCUGGACAUCUGGGCGAAGUUCUAAUAAGGUGUAAUAAUGUCCUCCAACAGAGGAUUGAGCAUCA,0.0789
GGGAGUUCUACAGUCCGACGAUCCAAGAUUUUCAGAUGUUAAGUAGAAUAUGGACUCAUCCUUGGUGUUUGCAGCUAGACUACAUCCGCAAAGAAAAUAAGGGUUAUUUUGAUGAAGACAGUAUGGAUGAAUUUAUAGCCUCACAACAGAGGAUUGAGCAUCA,0.268
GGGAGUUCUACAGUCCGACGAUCAGGUUAACUCUGAGAGCUAUCAAACUAUGGGCCAAACGCCACAACAUCUAUUCCAAUAUAUCCGGUUUCCUCGGUGGUGUUUCCUGGGCUAUGCUAGUAGCAAGAACUUGCCAGCUUUAUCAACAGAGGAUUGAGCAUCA,0.25
